Published values of several laboratories.
Lines come from different studies, so protocols differ. Several values in a cell are separate wells, animals, samples, runs or records. ± marks the error that the study gave.

`O=[N+]([O-])c1ccc(-c2ccc(O)cc2)c2cccnc12` has a plasma concentration of 18.2 ng/mL (male ICR mice, plasma; intravenous, 1 mg/kg, 0.5 h).
Under “plasma detection time”, `Cc1ccc(CNC(=O)c2cc(/C=C/C(=O)O)cc(-c3ccc4ncnn4c3)c2)cc1` is recorded as ≤ 5 min (male Balb/C mice, plasma; oral, 10 mg/kg).
The plasma concentration of `Cc1cc2sc(N)nc2c2cccnc12` is reported as 1490 ± 190 ng/mL (LC-MS; BALB/c mice, female; intraperitoneal, 30 mg/kg, 1 h).
`O=S(=O)(c1ccc(-c2ccc3nccc(Nc4ccncn4)c3c2)cc1)N1CCOCC1` has a plasma concentration of 4720 ng/mL and 5090 ng/mL (female BALB/c mice, plasma; intraperitoneal, 10 mg/kg, 0.25 h).
The plasma concentration of `CC[C@H](C)[C@H](NC(=O)[C@H](CCC(=O)O)NC(=O)[C@H](CO)NC(=O)[C@@H](NC(=O)[C@@H](N)CO)C(C)C)C(=O)N[C@@H](CCC(N)=O)C(=O)N[C@@H](CC(C)C)C(=O)N[C@@H](CCSC)C(=O)N[C@@H](Cc1cnc[nH]1)C(=O)N[C@@H](CC(N)=O)C(=O)N[C@@H](CC(C)C)C(=O)NCC(=O)N[C@@H](CCCCN)C(=O)N[C@@H](Cc1cnc[nH]1)C(=O)N[C@@H](CC(C)C)C(=O)N[C@@H](CC(N)=O)C(=O)N[C@@H](CO)C(=O)N[C@@H](CCSC)C(=O)N[C@@H](CCC(=O)O)C(=O)N[C@@H](CCCNC(=N)N)C(=O)N[C@H](C(=O)N[C@@H](CCC(=O)O)C(=O)N[C@@H](Cc1c[nH]c2ccccc12)C(=O)N[C@@H](CC(C)C)C(=O)N[C@@H](CCCNC(=N)N)C(=O)N[C@@H](CCCCN)C(=O)N[C@@H](CCCCN)C(=O)N[C@@H](CC(C)C)C(=O)N[C@@H](CCC(N)=O)C(=O)N[C@@H](CC(=O)O)C(=O)N[C@H](C(=O)N[C@@H](Cc1cnc[nH]1)C(=O)N[C@@H](CC(N)=O)C(=O)N[C@@H](Cc1ccccc1)C(N)=O)C(C)C)C(C)C` is reported as 0.651 nM (ELISA; female CD-1 mice, blood plasma; subcutaneous, 10 nmol/kg, 0.167 h).
`Cc1ccc(NC(=O)c2ccc(CN3CCN(C)CC3)cc2)cc1Nc1nccc(-c2cncc(-c3oncc3C)c2)n1` — result for “plasma accumulation ratio”: 1.5 to 2 (male C57BL/6 mice, plasma; oral, 100 mg/kg once daily, 7 days).
Under “plasma to brain ratio”, `CC1(C)C=C(CNc2ccc3c(c2)Cc2cc(Br)ccc2-3)C(C)(C)N1[O]` is recorded as 0.47 ± 0.05 (UPLC-MS/MS; wild-type mice; ip, 10 mg/kg, 60 min).
Under plasma lipase, `CC[C@H](C)[C@H](NC(=O)[C@H](Cc1ccccc1)NC(=O)[C@H](CCC(=O)O)NC(=O)[C@H](CCCCNC(=O)COCCOCCNC(=O)COCCOCCNC(=O)CC[C@H](NC(=O)CCCCCCCCCCCCCCCCC(=O)O)C(=O)O)NC(=O)[C@H](C)NC(=O)[C@H](C)NC(=O)[C@H](CCC(N)=O)NC(=O)CNC(=O)[C@H](CCC(=O)O)NC(=O)[C@H](CC(C)C)NC(=O)[C@H](Cc1ccc(O)cc1)NC(=O)[C@H](CO)NC(=O)[C@H](CO)NC(=O)[C@@H](NC(=O)[C@H](CC(=O)O)NC(=O)[C@H](CO)NC(=O)[C@@H](NC(=O)[C@H](Cc1ccccc1)NC(=O)[C@@H](NC(=O)CNC(=O)[C@H](CCC(=O)O)NC(=O)C(C)(C)NC(=O)[C@@H](N)Cc1cnc[nH]1)[C@@H](C)O)[C@@H](C)O)C(C)C)C(=O)N[C@@H](C)C(=O)N[C@@H](Cc1c[nH]c2ccccc12)C(=O)N[C@@H](CC(C)C)C(=O)N[C@H](C(=O)N[C@@H](CCCNC(=N)N)C(=O)NCC(=O)N[C@@H](CCCNC(=N)N)C(=O)NCC(=O)O)C(C)C` is recorded as “increased” (DIO C57BL/6J mice; dose not given, day 28, added: GLP-1R agonist co-treatment).
For `O=Cc1cc2c(cc1F)C(=O)N(C1CCC(=O)NC1=O)C2` (stereo not shown), plasma concentration read “not detected” (CD-1 mice; intravenous, 1 mg/kg, 2 h).
For `COC(=O)/C=C/c1cc(C(=O)NCc2ccc(C)cc2)cc(-c2ccc3ncnn3c2)c1`, plasma exposure read “not detected” (Balb/C mice, plasma; oral, 10 mg/kg, 1 h).
